Experimental data from different studies.
Each line is one published result; not all experiments were run side by side. Values joined by “and” are separate records of one study, mostly repeats; a detail may differ. ± marks the error that the study gave. ≈ marks a conversion by molar mass, not a printed value.

| SMILES | organism | test | test system | setting | scale | measurement | value |
| --- | --- | --- | --- | --- | --- | --- | --- |
| C=C(C)[C@@H]1CC[C@]2(C(=O)NC(CO)Cc3ccccc3)CC[C@]3(C)[C@H](CC[C@@H]4[C@@]5(C)CCCNC(C)(C)[C@@H]5CC[C@]43C)[C@@H]12 (stereo partly drawn) | Human alphaherpesvirus 1 | cytopathic effect | HFF, E-377 | – | – | EC90 | > 1.2 µM |
| O=c1c(O)cccc(Sc2ccccc2)c1O | Hepatitis B virus | viral replication, inhibitor | HepDES19 | – | – | EC50 | 47 µM |
| CC[C@H](C)[C@H](NC(=O)CNC(=O)CNC(=O)[C@H](CO)NC(=O)[C@@H](NC(=O)[C@H](CCCCN)NC(=O)[C@H](CO)NC(=O)[C@@H](N)CC(C)C)[C@@H](C)CC)C(=O)NCC(=O)N1CCC[C@H]1C(=O)N[C@@H](CC(C)C)C(=O)N[C@H](C(=O)N[C@H](C(=O)N1CCC[C@H]1C(=O)N[C@H](C(N)=O)C(C)C)[C@@H](C)CC)C(C)C | Clostridioides difficile | – | Caco-2 | concentration not given | – | reduction of proinflammatory cytokines | < 20% |
| CC(=O)OC[C@H]1O[C@@H](Sc2sc(C(=O)c3ccc(Br)cc3)c(N)c2-c2nc3ccccc3s2)[C@H](OC(C)=O)[C@@H](OC(C)=O)[C@@H]1OC(C)=O | Hepatitis C virus | – | Huh7.5, genotype 4 | non-toxic dose NG, mean over three titres | – | viral reduction | 63.3% |
| Cc1ncc([N+](=O)[O-])n1CCOCc1nnc(SCC(=O)c2ccc(Cl)cc2)o1 | viridans streptococci | – | DMSO | 60 µg/mL, 24 h, 37 °C | – | inhibition zone diameter | ≥ 20 mm |
| CC[C@H](C)[C@H](NC(=O)[C@@H](C)NC)C(=O)N1CC[C@@H]2Oc3ccc(OC)c(c3)/C=C\NC(=O)[C@H](C(C)C)NC(=O)[C@H]21 | porcine epidemic diarrhea virus | – | Vero cells | – | reference: CC50 over EC50 | selectivity index | > 30 |
| C#CCN1CCc2c3n(c4ccccc24)C(=O)C(=C)C3(C(=O)OC)C1 (stereo not drawn) | Hepatitis B virus | viral replication, inhibitor, qPCR | HePAD38 | 5 µM | – | inhibition | ~66% |
| O=C(Nc1ccccc1Nc1ccccc1)c1cccnc1F | Botrytis cinerea | microbial growth | – | 50 µg/mL | – | inhibition | 40.5% |
| CC[C@H](C)[C@H](NC(=O)[C@H](CCCCN)NC(=O)[C@H](CC(N)=O)NC(=O)[C@H](Cc1c[nH]c2ccccc12)NC(=O)[C@H](Cc1ccccc1)NC(=O)[C@H](CCCCN)NC(=O)[C@H](CCCNC(=N)N)NC(=O)[C@H](CC(C)C)NC(=O)[C@H](Cc1c[nH]c2ccccc12)NC(=O)[C@H](CCCCN)NC(=O)[C@H](CCCNC(=N)N)NC(=O)[C@H](CC(C)C)NC(=O)CNC(C)=O)C(=O)N[C@@H](CCCCN)C(=O)N[C@@H](CCCNC(=N)N)C(N)=O | Gram-positive bacteria | – | – | – | – | geometric mean MIC | 3.13 µM |
| CC(C)C[C@H](NC(=O)OCc1ccccc1)C(=O)N[C@@H](C[C@@H]1CCNC1=O)C(O)S(=O)(=O)[O-].[Na+] (stereo partly drawn) | Coxsackievirus A10 | – | RD | 5 µM, added 0 to 4 h post infection | – | cytopathic effect | inhibited |
| CC[C@H](C)[C@H](NC(=O)[C@H](CCCN)NC(=O)[C@H](CC(N)=O)NC(=O)[C@H](CC(C)C)NC(=O)[C@H](Cc1ccccc1)NC(=O)[C@H](CCCN)NC(=O)[C@H](CCCNC(=N)N)NC(=O)[C@H](CC(C)C)NC(=O)[C@H](CC(C)C)NC(=O)[C@H](CCCN)NC(=O)[C@H](CCCNC(=N)N)NC(=O)[C@H](CC(C)C)NC(=O)CNC(C)=O)C(=O)N[C@@H](CCCN)C(=O)N[C@@H](CCCNC(=N)N)C(N)=O | Gram-positive bacteria | – | – | – | – | geometric mean MIC | 3.13 µM |
| Oc1c(Br)cc(Br)c2nc3c(C(F)(F)F)cc(C(F)(F)F)cc3nc12 | Staphylococcus aureus | Calgary Biofilm Device | MRSA 1 | – | – | MBC | 0.39 µM (≈ 0.191 µg/mL) |
| CC(C)C[C@@H]1NC(=O)[C@H](CCCCN)NC(=O)[C@H](C(C)C)NC(=O)[C@@H]2CCCN2C(=O)[C@@H](Cc2ccc(O)cc2)NC(=O)[C@H](CC(C)C)NC(=O)[C@H](CCCCN)NC(=O)[C@H](C(C)C)NC(=O)[C@H](CCCCN)NC(=O)[C@H](CC(C)C)NC(=O)[C@@H]2CCCN2C(=O)[C@@H](Cc2ccc(O)cc2)NC(=O)[C@H](C(C)C)NC1=O | Gram-positive bacteria | – | – | 24 h, 7 strains | – | MIC geometric mean | 1.8 µg/mL (≈ 1.17 µM) |
| O=C(Nc1ccccc1Nc1ccccc1)c1cccnc1Br | Botrytis cinerea | microbial growth | – | 50 µg/mL | – | inhibition | 35.2% |
| C[C@@H]1C(=O)O[C@@H](C)/C=C/C=C\[C@@H](C)[C@@H]2C=C[C@@H]3C[C@@]4(C)O[C@H]4[C@@H](C)[C@H]3[C@@H]2C(=O)C(Cl)(Cl)C1=O | Staphylococcus aureus | – | MSSA and MRSA clinical isolates | – | – | MIC range | 0.0125 to 0.2 µg/mL (≈ 0.0252 to 0.404 µM) |
| C=C(C)[C@@H]1CC[C@]2(C(N)=O)CC[C@]3(C)[C@H](CC[C@@H]4[C@@]5(C)CCCNC(C)(C)[C@@H]5CC[C@]43C)[C@@H]12 | Human alphaherpesvirus 1 | – | HFF, E-377 | – | reference: CC50 over EC50 | selectivity index | < 2 |
| Cc1ccc(/C=N/N=C/c2ccc([N+](=O)[O-])o2)cc1 | Trypanosoma evansi | parasite growth, CellTiter-Glo | Tansui bloodstream form | 72 h | – | IC50 | 5.43 ± 1.08 µM |
| COc1ccc(-c2nc(-c3ccccc3OC)[nH]c2-c2ccc(OC)cc2)cc1 | Schistosoma mansoni | – | adult male worms | 50 µM | – | worm killing | 0% |
| CC(=O)N[C@H](CCCNC(=N)N)C(=O)N[C@H](CCCNC(=N)N)C(=O)N[C@H](CCCNC(=N)N)C(=O)N[C@H](CCCNC(=N)N)C(=O)N[C@H](CCCNC(=N)N)C(=O)N[C@H](CCCNC(=N)N)C(=O)N[C@H](CCCNC(=N)N)C(=O)N[C@H](CCCNC(=N)N)C(=O)N[C@H](CCCNC(=N)N)C(N)=O | HIV-1 | viral replication, p24 level | human PBMC, NL4-3 | concentration not given | – | inhibition | 85% and > 95% |
| Cc1ncc([N+](=O)[O-])n1CCOCc1nnc(SCC(=O)c2ccc(F)cc2)o1 | viridans streptococci | – | DMSO | 60 µg/mL, 24 h, 37 °C | – | inhibition zone diameter | 15 to 20 mm |

| SMILES | organism | test | test system | setting | scale | measurement | value |
| --- | --- | --- | --- | --- | --- | --- | --- |
| O=[N+]([O-])c1ccc(/C=N/N=C/c2ccc(OCc3ccccc3)cc2)o1 | Trypanosoma evansi | parasite growth, CellTiter-Glo | Tansui bloodstream form | 72 h | – | IC50 | 0.62 ± 0.04 µM |
| CN[C@H](CC(C)C)C(=O)N[C@H]1C(=O)N[C@@H](CC(N)=O)C(=O)N[C@H]2C(=O)N[C@H]3C(=O)N[C@H](C(=O)N[C@H](C(=O)O)c4cc(O)cc(O)c4-c4cc3ccc4O)[C@H](O)c3ccc(c(Cl)c3)Oc3cc2cc(c3O[C@@H]2O[C@H](CO)[C@@H](O)[C@H](O)[C@H]2O[C@H]2C[C@](C)(NCc3ccc(C(=O)OCCCCCCN(Cc4ccccn4)Cc4ccccn4)cc3)[C@H](O)[C@H](C)O2)Oc2ccc(cc2Cl)[C@H]1O | Bacillus subtilis | protein synthesis, refers to: LiaH.3 | 168 | concentration not given, 10 min, at peak effective concentration | reference: untreated | regulation factor | 45.7 ± 9.98 |
| CN(Cc1cc(C2CC2)on1)C(=O)c1cccc(-c2ccc3c(c2)CCO3)c1 | Cryptococcus neoformans | – | H99 | together with: fluconazole | – | FIC index | 0.5 |
| CC(C)Sc1ccc(SC(C)C)c(O)c(=O)c1O | Cryptococcus neoformans | microbial growth, broth dilution | – | 13 h | – | MIC80 | 1.5 µM (≈ 0.43 µg/mL) |
| COC(=O)c1c(C)cc(O)c(=O)c(O)c1O | herpes simplex virus 1 | viral replication | – | 200 nM | – | antiviral activity | inactive |
| CC(C)(C)c1ccc(NC(=S)N/N=C/c2ccccc2O)cc1 | Candidozyma auris | broth microdilution | 922 | – | reference: hit compound | MIC fold improvement | 64 fold |
| CC(C)C[C@@H]1NC(=O)[C@H](CCCCN)NC(=O)[C@H](C(C)C)NC(=O)[C@H](CCCCN)NC(=O)[C@@H]2CCCN2C(=O)[C@@H](Cc2ccc(O)cc2)NC(=O)[C@H](CCCCN)NC(=O)[C@H](CCCCN)NC(=O)[C@H](C(C)C)NC(=O)[C@@H]2CCCN2C(=O)[C@@H](Cc2ccc(O)cc2)NC1=O | Gram-positive bacteria | – | – | 24 h, 7 strains | – | MIC geometric mean | 116 µg/mL (≈ 86.2 µM) |
| CCCCCCS(=O)(=O)c1ccc(S(=O)(=O)CCCCCC)c(O)c(=O)c1O | Hepatitis B virus | viral replication, inhibitor | HepDES19 | – | – | EC50 | 50 µM |
| O=[N+]([O-])c1ccc(/C=N/N=C/c2ccc([N+](=O)[O-])o2)cc1 | Trypanosoma evansi | parasite growth, CellTiter-Glo | Tansui bloodstream form | 72 h | – | IC50 | 1.74 ± 0.74 µM |
| c1ccc(-c2nc(-c3ccc4ccccc4c3)c[nH]2)cc1 | Schistosoma mansoni | – | adult male worms | 10 µM | – | worm killing | 0% |
| COc1ccc(S(=O)(=O)NCc2c[nH]nc2-c2cccs2)cc1 | Plasmodium vivax | reinvasion | 3, human, human red blood cells | 1× EC50, 20 h | – | parasitemia | 1.2 ± 0.2% |
| CC(C)C[C@@H]1NC(=O)[C@H](CCCCN)NC(=O)[C@H](C(C)C)NC(=O)[C@H](CCCCN)NC(=O)[C@H](CC(C)C)NC(=O)[C@@H]2CCCN2C(=O)[C@@H](Cc2ccc(O)cc2)NC(=O)[C@H](C(C)C)NC(=O)[C@H](CCCCN)NC(=O)[C@H](CCCCN)NC(=O)[C@H](C(C)C)NC(=O)[C@@H]2CCCN2C(=O)[C@@H](Cc2ccc(O)cc2)NC1=O | Gram-positive bacteria | – | – | 24 h, 7 strains | – | MIC geometric mean | 1.5 µg/mL (≈ 0.963 µM) |
| Cc1ccc(/C=N/N=C/c2ccc([N+](=O)[O-])s2)cc1 | Trypanosoma brucei gambiense | parasite growth, CellTiter-Glo | IL1922 bloodstream form | 72 h | – | IC50 | 2.5 ± 0.81 µM |
| CCCCCCSc1ccc(SCCCCCC)c(O)c(=O)c1O | Cryptococcus neoformans | microbial growth, broth dilution | – | 13 h | – | MIC80 | 7 µM (≈ 2.59 µg/mL) |
| COc1ccc(/C=N/N=C/c2ccc([N+](=O)[O-])o2)cc1 | Trypanosoma evansi | parasite growth, CellTiter-Glo | Tansui bloodstream form | 72 h | – | IC50 | 4.06 ± 1.5 µM |
| Cc1ccc(Sc2cccc(O)c(=O)c2O)cc1 | Hepatitis B virus | viral replication, inhibitor | HepDES19 | – | – | EC50 | 17 µM |
| NC(CNC(CNC(CC(=O)O)C(=O)O)C(=O)O)C(=O)O (stereo not drawn) | Enterobacteriaceae, Acinetobacter, Pseudomonas | inhibitor | VIM-positive clinical isolates | 8 µg/mL, together with: meropenem 2 µg/mL | – | isolates with restored meropenem susceptibility | 90% |
| O=[N+]([O-])c1ccc(/C=N/N=C/c2ccc(F)cc2)s1 | Trypanosoma brucei gambiense | parasite growth, CellTiter-Glo | IL1922 bloodstream form | 72 h | – | IC50 | 0.57 ± 0.08 µM |
| CC(=O)N[C@H](CCCCN)C(=O)N[C@H](CC(C)C)C(=O)N[C@H](CCCCN)C(=O)N[C@H](CO)C(=O)N[C@H](CC(C)C)C(=O)N[C@H](CC(C)C)C(=O)N[C@H](CCCCN)C(=O)N[C@@H](C(=O)N[C@H](CC(C)C)C(=O)N[C@H](CO)C(=O)N[C@H](CCCCN)C(=O)N[C@H](C)C(=O)N[C@H](CCCCN)C(=O)N[C@H](CCCCN)C(=O)N[C@H](CCCCN)C(=O)N[C@H](CC(C)C)C(=O)N[C@H](CC(C)C)C(=O)N[C@H](CCCCN)C(=O)N[C@@H](C(=O)N[C@H](C)C(=O)N[C@H](CC(C)C)C(=O)N[C@H](CCCCN)C(=O)N[C@H](C)C(=O)N[C@H](CC(C)C)C(=O)N[C@H](CO)C(=O)N[C@H](CCCCN)C(N)=O)[C@H](C)O)[C@H](C)O | Acinetobacter baumannii | – | 689, Mueller-Hinton broth | 24 h, 37 °C | – | MIC | 0.7 µM (≈ 2.05 µg/mL) |
